Results collected from several papers.
Lines come from different studies, so protocols differ.
Method: steady-state kinetics
B1: DAO1 (Trigonopsis variabilis, UniProt Q99042); chain MAKIVVIGAGVAGLTTALQLLRKGHEVTIVSEFTPGDLSIGYTSPWAGANWLTFYDGGKLADYDAVSYPILRELARSSPEAGIRLISQRSHVLKRDLPKLEVAMSAICQRNPWFKNTVDSFEIIEDRSRIVHDDVAYLVEFRSVCIHTGVYLNWLMSQCLSLGATVVKRRVNHIKDANLLHSSGSRPDVIVNCSGLFARFLGGVEDKKMYPIRGQVVLVRNSLPFMASFSSTPEKENEDEALYIMTRFDGTSIIGGCFQPNNWSSEPDPSLTHRILSRALDRFPELTKDGPLDIVRECVGHRPGREGGPRVELEKIPGVGFVVHNYGAAGAGYQSSYGMADEAVSYVERALTRPNL
B2: enzyme (Arabidopsis thaliana, UniProt O82390); chain MNARALLCSSNIHSLYTSNRPPEKTSSSRSLRNLKPSPKSLRVWIYPRNRSSVFRVLVRSSDKSESSNSYYVEGDKVSGNNDVVSDSPSSIVLPWWEEFPKRWVIVLLCFSAFLLCNMDRVNMSIAILPMSAEYGWNPATVGLIQSSFFWGYLLTQIAGGIWADTVGGKRVLGFGVIWWSIATILTPVAAKLGLPYLLVVRAFMGVGEGVAMPAMNNILSKWVPVQERSRSLALVYSGMYLGSVTGLAFSPFLIHQFGWPSVFYSFGSLGTVWLTLWLTKAESSPLEDPTLLPEERKLIADNCASKEPVKSIPWRLILSKPPVWALISCHFCHNWGTFILLTWMPTYYHQVLKFNLMESGLLSVFPWMTMAISANAGGWIADTLVSRGFSVTNVRKIMQTIGFLGPAFFLTQLKHIDSPTMAVLCMACSQGTDAFSQSGLYSNHQDIAPRYSGVLLGLSNTAGVLAGVLGTAATGHILQHGSWDDVFTISVGLYLVGTVIWNLFSTGEKIID
B3: MSS116 Q412A (Saccharomyces cerevisiae, UniProt P15424); chain LYNDGNRDQRNFGRNQRNNNSNRYRNSRFNSRPRTRSREDDDEVHFDKTTFSKLIHVPKEDNSKEVTLDSLLEEGVLDKEIHKAITRMEFPGLTPVQQKTIKPILSSEDHDVIARAKTGTGKTFAFLIPIFQHLINTKFDSQYMVKAVIVAPTRDLALQIEAEVKKIHDMNYGLKKYACVSLVGGTDFRAAMNKMNKLRPNIVIATPGRLIDVLEKYSNKFFRFVDYKVLDEADRLLEIGFRDDLETISGILNEKNSKSADNIKTLLFSATLDDKVQKLANNIMNKKECLFLDTVDKNEPEAHERIDQSVVISEKFANSIFAAVEHIKKQIKERDSNYKAIIFAPTVKFTSFLCSILKNEFKKDLPILEFHGKITANKRTSLVKRFKKDESGILVCTDVGARGMDFPNVHEVLQIGVPSELANYIHRIGRTARSGKEGSSVLFICKDELPFVRELEDAKNIVIAKQEKYEPSEEIKSEVLEAVTEEPEDISDIVISLISSYRSCIKEYRFSERRILPEIASTYGVLLNDPQLKIPVSRRFLDKLGLSRSPIGKAMFEIRDYSSRDGNNKSYDYDDDSEISFRGNKNYNNRSQNRDYDDEPFRRSNNNRRSFSRSNDKNNYSSRNSNIY
B4: hdhb (Clostridium sardiniense, UniProt G9FRD6); chain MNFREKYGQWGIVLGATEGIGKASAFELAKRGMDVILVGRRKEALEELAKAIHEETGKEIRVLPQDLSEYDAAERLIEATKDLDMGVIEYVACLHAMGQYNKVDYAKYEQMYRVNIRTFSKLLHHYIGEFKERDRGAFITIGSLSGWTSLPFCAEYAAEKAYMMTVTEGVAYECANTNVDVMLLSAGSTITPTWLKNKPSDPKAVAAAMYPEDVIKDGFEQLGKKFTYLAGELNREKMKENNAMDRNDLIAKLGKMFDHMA
B5: ADA (Homo sapiens, UniProt P00813); chain MAQTPAFDKPKVELHVHLDGSIKPETILYYGRRRGIALPANTAEGLLNVIGMDKPLTLPDFLAKFDYYMPAIAGCREAIKRIAYEFVEMKAKEGVVYVEVRYSPHLLANSKVEPIPWNQAEGDLTPDEVVALVGQGLQEGERDFGVKARSILCCMRHQPNWSPKVVELCKKYQQQTVVAIDLAGDETIPGSSLLPGHVQAYQEAVKSGIHRTVHAGEVGSAEVVKEAVDILKTERLGHGYHTLEDQALYNRLRQENMHFEICPWSSYLTGAWKPDTEHAVIRLKNDQANYSLNTDDPLIFKSTLDTDYQMTKRDMGFTEEEFKRLNINAAKSSFLPEDEKRELLDLLYKAYGMPPSASAGQNL
B6: SULT1B1 E275K/K266E (Homo sapiens, UniProt O43704); chain 1 MLSPKDILRKDLKLVHGYPMTCAFASNWEKIEQFHSRPDDIVIATYPKSGTTWVSEIIDMILNDGDIEKCKRGFITEKVPMLEMTLPGLRTSGIEQLEKNPSPRIVKTHLPTDLLPKSFWENNCKMIYLARNAKDVSVSYYHFDLMNNLQPFPGTWEEYLEKFLTGKVAYGSWFTHVKNWWKKKEEHPILFLYYEDMKENPKEEIKKIIRFLEKNLNDEILDRIIHHTSFEVMKDNPLVNYTHLPTTVMDHSKSPFMRKGTAGDWENYFTVAQNEKFDAIYETEMSKTALQFRTEI; chain 2 MLSPKDILRKDLKLVHGYPMTCAFASNWEKIEQFHSRPDDIVIATYPKSGTTWVSEIIDMILNDGDIEKCKRGFITEKVPMLEMTLPGLRTSGIEQLEKNPSPRIVKTHLPTDLLPKSFWENNCKMIYLARNAKDVSVSYYHFDLMNNLQPFPGTWEEYLEKFLTGKVAYGSWFTHVKNWWKKKEEHPILFLYYEDMKENPKEEIKKIIRFLEKNLNDEILDRIIHHTSFEVMKDNPLVNYTHLPTTVMDHSKSPFMRKGTAGDWKNYFTVAQNKKFDAIYETEMSKTALQFRTEI
B7: GAR synthetase (Cryptococcus neoformans, UniProt J9VYP5); chain MPEITAFPQPKSDLSILLLGAGGREHALAFKLAQSSRVARIVVCPGNGGTALMGGKVSNLALPWGAPPAFRSIVEWAQKENIDLVVPGPEQPLVDGVEGAFKKVGIPVFGPSPAAAMLEGSKSLSKEFMARHNIPTAAFRSFTSTQYEDAVAYIKSKPFTSGRSVIKASGLAAGKGVLIPETDEEAFAALKSVMVDKEFGDAGDEVVVEEYLSGPEISVLAFSDGYTIVPMPAAQDHKRIGEGDTGLNTGGMGAYAPAPIATKEIMERCVKDVLEPTIKGMREDGYPFVGMLFTGFMITADGPRVLEYNVRFGDPETQALMLLLDEQTDLAEVLLACVERRLDSIKLGYKQGYAVSVVLASEGYPGSYPKGLPMTLNPTPEGVEVFHAGTKRSDNVTVTDGGRVLAVCASAPTLRAAVDLAYSGISQISFQGQTFRRDIAYRALSSEPPAEP
B8: nahG (Pseudomonas putida, UniProt P23262); chain MKNNKLGLRIGIVGGGISGVALALELCRYSHIQVQLFEAAPAFGEVGAGVSFGPNAVRAIVGLGLGEAYLQVADRTSEPWEDVWFEWRRGSDASYLGATIAPGVGQSSVHRADFIDALVTHLPEGIAQFGKRATQVEQQGGEVQVLFTDGTEYRCDLLIGADGIKSALRSHVLEGQGLAPQVPRFSGTCAYRGMVDSLHLREAYRAHGIDEHLVDVPQMYLGLDGHILTFPVRNGGIINVVAFISDRSEPKPTWPADAPWVREASQREMLDAFAGWGDAARALLECIPAPTLWALHDLAELPGYVHGRVVLIGDAAHAMLPHQGAGAGQGLEDAYFLARLLGDTQADAGNLAELLEAYDDLRRPRACRVQQTSWETGELYELRDPVVGANEQLLGENLATRFDWLWNHDLDTDLAEARARLGWEHGGGGALRQG
B9: Mj-MAT (Methanocaldococcus jannaschii, UniProt Q58605); chain MRNIIVKKLDVEPIEERPTEIVERKGLGHPDSICDGIAESVSRALCKMYMEKFGTILHHNTDQVELVGGHAYPKFGGGVMVSPIYILLSGRATMEILDKEKNEVIKLPVGTTAVKAAKEYLKKVLRNVDVDKDVIIDCRIGQGSMDLVDVFERQKNEVPLANDTSFGVGYAPLSTTERLVLETERFLNSDELKNEIPAVGEDIKVMGLREGKKITLTIAMAVVDRYVKNIEEYKEVIEKVRKKVEDLAKKIADGYEVEIHINTADDYERESVYLTVTGTSAEMGDDGSVGRGNRVNGLITPFRPMSMEAASGKNPVNHVGKIYNILANLIANDIAKLEGVKECYVRILSQIGKPINEPKALDIEIITEDSYDIKDIEPKAKEIANKWLDNIMEVQKMIVEGKVTTF
B10: asnB E349A (Escherichia coli, UniProt P22106); chain CSIFGVFDIKTDAVELRKKALELSRLMRHRGPDWSGIYASDNAILAHERLSIVDVNAGAQPLYNQQKTHVLAVNGEIYNHQALRAEYGDRYQFQTGSDCEVILALYQEKGPEFLDDLQGMFAFALYDSEKDAYLIGRDHLGIIPLYMGYDEHGQLYVASEMKALVPVCRTIKEFPAGSYLWSQDGEIRSYYHRDWFDYDAVKDNVTDKNELRQALEDSVKSHLMSDVPYGVLLSGGLDSSIISAITKKYAARRVEDQERSEAWWPQLHSFAVGLPGSPDLKAAQEVANHLGTVHHEIHFTVQEGLDAIRDVIYHIETYDVTTIRASTPMYLMSRKIKAMGIKMVLSGAGSDEVFGGYLYFHKAPNAKELHEETVRKLLALHMYDCARANKAMSAWGVEARVPFLDKKFLDVAMRINPQDKMCGNGKMEKHILRECFEAYLPASVAWRQKEQFSDGVGYSWIDTLKEVAAQQVSDQQLETARFRFPYNTPTSKEAYLYREIFEELFPLPSAAECVPGGPSVACSSAKAIEWDEAFKKMDDPSGRAVGVHQSAYK
Sequence of UniProt Q11203 (whole entry, looked up): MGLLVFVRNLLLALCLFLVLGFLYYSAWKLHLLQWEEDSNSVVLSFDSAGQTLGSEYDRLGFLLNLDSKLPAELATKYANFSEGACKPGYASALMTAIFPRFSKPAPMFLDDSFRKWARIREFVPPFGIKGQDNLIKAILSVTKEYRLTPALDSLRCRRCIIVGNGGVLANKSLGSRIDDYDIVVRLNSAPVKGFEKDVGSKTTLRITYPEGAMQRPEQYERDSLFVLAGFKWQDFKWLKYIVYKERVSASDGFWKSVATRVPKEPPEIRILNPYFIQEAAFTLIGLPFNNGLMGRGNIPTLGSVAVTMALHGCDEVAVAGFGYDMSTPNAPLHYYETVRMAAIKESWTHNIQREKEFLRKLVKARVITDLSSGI

Substance	substrate	system	conditions	Km
B1 (DAO1)	CN(C)c1ccc2nc3ccc(N(C)C)c([N+](=O)[O-])c3[s+]c2c1	–	pH 8, 22 °C, apparent	62 µM
B2 (enzyme)	O=P(O)(O)O	–	pH 6.5, 25 °C, apparent, not purified	77.1 µM
B3 (MSS116 Q412A)	Nc1ncnc2c1ncn2[C@@H]1O[C@H](COP(=O)(O)OP(=O)(O)OP(=O)(O)O)[C@@H](O)[C@H]1O	–	pH 7.5, 37 °C, added: ATP	143 µM
enzyme (Acetivibrio thermocellus, UniProt A3DJ38)	Nc1ncnc2c1ncn2[C@@H]1O[C@H](CO)[C@H]2OP(=O)(O)O[C@H]21	–	pH 7.5, 45 °C	18000 µM
B4 (hdhb)	NC(=O)c1ccc[n+]([C@@H]2O[C@H](COP(=O)(O)OP(=O)(O)OC[C@H]3O[C@@H](n4cnc5c(N)ncnc54)[C@H](O)[C@@H]3O)[C@@H](O)[C@H]2O)c1	–	pH 8, 25 °C, cofactor varied	2620 µM
B5 (ADA)	Nc1ncnc2c1ncn2[C@@H]1O[C@H](CO)[C@@H](O)[C@H]1O	HEK293, cell homogenate	pH 5.8, 37 °C, not purified	126 µM
B6 (SULT1B1 E275K/K266E)	Nc1ncnc2c1ncn2[C@@H]1O[C@H](COP(=O)(O)OS(=O)(=O)O)[C@@H](OP(=O)(O)O)[C@H]1O	–	pH 7.4, 37 °C, added: 1-naphthol	1.9 µM
B7 (GAR synthetase)	NCC(=O)O	–	pH 8, 37 °C, apparent	364 µM
B8 (nahG)	Cc1cc2nc3c(=O)[nH]c(=O)nc-3n(C[C@H](O)[C@H](O)[C@H](O)COP(=O)(O)OP(=O)(O)OC[C@H]3O[C@@H](n4cnc5c(N)ncnc54)[C@H](O)[C@@H]3O)c2cc1C	–	pH 8.5, 25 °C, apparent, cofactor varied, added: NADH 200 µM, salicylate 150 µM	0.53 µM
B9 (Mj-MAT)	CSCC[C@H](N)C(=O)O	–	55 °C, added: ATP 2.5 mM, methionine 0.05-1 mM	310 µM
B10 (asnB E349A)	NC(=O)CC[C@H](N)C(=O)O	–	pH 8, 37 °C, 100 mM NaCl, glutaminase site, added: MgCl2; no ATP	5800 µM
ST3GAL3 (Homo sapiens, UniProt Q11203)	CC(=O)N[C@H]1[C@H](O[C@H]2[C@@H](O)[C@@H](CO)O[C@@H](Oc3ccc([N+](=O)[O-])cc3)[C@@H]2O)O[C@H](CO)[C@@H](O[C@@H]2O[C@H](CO)[C@H](O)[C@H](O)[C@H]2O)[C@@H]1O	–	pH 6, added: CMP-Neu5Ac	830 µM
α-amino ester hydrolase (Xanthomonas campestris, UniProt Q8P8K4)	CC1=C(C(=O)O)N2C(=O)[C@@H](NC(=O)[C@H](N)c3ccccc3)[C@H]2SC1	–	pH 7, 25 °C, phosphate 100 mM	2200 µM

For quick reference, copied from above:
Substance	substrate	system	conditions	Km
B2 (enzyme)	O=P(O)(O)O	–	pH 6.5, 25 °C, apparent, not purified	77.1 µM
B3 (MSS116 Q412A)	Nc1ncnc2c1ncn2[C@@H]1O[C@H](COP(=O)(O)OP(=O)(O)OP(=O)(O)O)[C@@H](O)[C@H]1O	–	pH 7.5, 37 °C, added: ATP	143 µM
